Assay results of several laboratories.
Compare with care: the assays were run in different laboratories. ± marks the error that the study gave.
Sequence of UniProt P06276 (whole entry, looked up): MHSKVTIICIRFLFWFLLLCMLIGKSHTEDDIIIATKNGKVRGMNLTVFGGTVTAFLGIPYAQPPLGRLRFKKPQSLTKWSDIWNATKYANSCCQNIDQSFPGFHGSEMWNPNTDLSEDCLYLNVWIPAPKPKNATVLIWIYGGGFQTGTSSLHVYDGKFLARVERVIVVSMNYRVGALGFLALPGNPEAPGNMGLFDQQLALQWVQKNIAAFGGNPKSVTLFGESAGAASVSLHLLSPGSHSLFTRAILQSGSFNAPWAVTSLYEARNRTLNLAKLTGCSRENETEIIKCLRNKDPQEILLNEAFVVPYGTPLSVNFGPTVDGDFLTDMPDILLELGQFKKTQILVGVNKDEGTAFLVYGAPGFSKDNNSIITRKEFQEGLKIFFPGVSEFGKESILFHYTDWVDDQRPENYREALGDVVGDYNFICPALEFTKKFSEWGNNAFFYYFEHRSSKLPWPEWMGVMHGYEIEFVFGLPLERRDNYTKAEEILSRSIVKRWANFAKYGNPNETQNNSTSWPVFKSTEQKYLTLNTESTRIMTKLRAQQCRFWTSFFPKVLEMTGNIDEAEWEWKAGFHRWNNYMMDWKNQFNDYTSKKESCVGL

Structure (SMILES) | tested on | assay | test system | setting | quantity | result
COc1cc(O)ccc1OCCNCC(O)COc1cccc2[nH]c3ccccc3c12 (centres unmarked) | Cholinesterase (BCHE, Homo sapiens, UniProt P06276) | enzyme activity, fluorescence |  |  | IC50 | 2.44 ± 1.24 µM
COc1cccc2c1CCCC2CCCN1CCN(C2CCCCC2)CC1 (centres unmarked) |  |  | CD-1 mouse, male, plasma | intraperitoneal, 3 mg/kg | Tmax | 15 min
O=C(O)C(O)(c1cccs1)c1cccs1 |  |  | human, cerebrospinal fluid | oral, 2 mg once daily, 5 days, median | Tmax | 480 min
CC/C(=C(\c1ccccc1)c1ccc(OCCN(C)C)cc1)c1ccccc1 |  |  | CD-1 mouse, male, lung | intraperitoneal, 0.3 mg/kg | Tmax | 360 min
NC(=O)c1cccc(-c2cc(OC(=O)NC3CCCCC3)ccc2O)c1 |  |  | mouse, plasma | oral, 10 mg/kg | Tmax | 30 min
CN(C)CCCN1c2ccccc2Sc2ccccc21 | Plasmodium falciparum |  | D10 |  | IC50 | 15.8 µM
N.N.O=C([O-])C1(C(=O)[O-])CCC1.[Pt+2] |  | item: unbound platinum | human, plasma ultrafiltrate | intravenous, AUC 2, median, dose level -4 | Tmax | 36 min
CCC[C@@](N)(CO)CCc1ccc(OCCCCCC(C)C)cc1 |  |  | dog | oral, 15 mg/kg | Tmax | 360 min
Cc1ccc(F)c2cc(C(=O)N[C@@H]3CCC[C@H](N4CC[C@H](N(C)S(C)(=O)=O)C4)C3)[nH]c12 |  |  | CD1 mouse | oral, 100 mg/kg | Tmax | 72 min
CC1=C(C)C(=O)C(CCCCC#CCCCC#CCO)=C(C)C1=O | Plasmodium falciparum |  | D10 |  | IC50 | 12.6 µM
N#C[C@@]1(n2ccc(N)nc2=O)O[C@H](CO)[C@@H](O)[C@H]1O |  |  | CD-1 mouse, plasma | intravenous, 15 mg/kg | Tmax | 30 min
C[C@H](NC(=O)c1c(C(F)F)nn(C)c1Oc1cccc(C(F)(F)F)c1)c1ccc(C(=O)O)cc1 |  |  | human, plasma | 250 mg, cycle 1 day 8, median | Tmax | 30 min
COc1cc2c(Oc3ccc4[nH]c(C)cc4c3F)ccnc2cc1OCC1(N)CC1 |  |  | paediatric recurrent refractory sarcoma | 10 mg | Hypothyroidism incidence | 100%
CCCCCCCC(=O)N[C@@H](CCCCN)C(=O)N[C@@H](CCCCN)C(=O)N[C@@H](C)C(=O)N[C@@H](CC(C)C)C(=O)N[C@@H](CCCCN)C(=O)N[C@@H](CC(C)C)C(=O)N[C@@H](C)C(=O)N[C@@H](CCCCN)C(=O)N[C@@H](CCCCN)C(=O)N1CCC[C@H]1C(=O)N[C@@H](CC(C)C)C(=O)N[C@@H](CCCCN)C(=O)N[C@@H](CC(C)C)C(=O)N[C@@H](CC(C)C)C(=O)N[C@@H](CCCCN)C(N)=O |  |  | mouse ICR CD1 female, whole blood | intravenous bolus, 3 mg/kg | Tmax | 3 ± 1.8 min

Some of these lines once more:
Structure (SMILES) | tested on | assay | test system | setting | quantity | result
NC(=O)c1cccc(-c2cc(OC(=O)NC3CCCCC3)ccc2O)c1 |  |  | mouse, plasma | oral, 10 mg/kg | Tmax | 30 min
